Measurements of several laboratories.
Parts stem from different laboratories: compare values within a part only. Positions count from the first letter of the parent shown.

Sample 1 — target: BATF3, bZIP domain (human); method: DHFR protein complementation; matrix: yeast; reference: wild-type JUN-FOS pair; direction: higher = stronger binding; measurement: binding fitness
Setting: single substitutions, most at no-binding floor
Parent: JUN, bZIP domain (human); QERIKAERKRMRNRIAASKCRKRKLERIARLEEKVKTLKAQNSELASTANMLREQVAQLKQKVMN; partner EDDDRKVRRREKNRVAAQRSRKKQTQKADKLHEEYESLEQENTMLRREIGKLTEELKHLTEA
T37G: 0.246 natural log
E32D: 0.285 natural log
M51H: 0.237 natural log
A40D: 0.212 natural log
V35A: -0.00918 natural log
L59P: -0.594 natural log
A49K: 0.152 natural log
V56D: -0.778 natural log
R53A: 0.155 natural log

Sample 2 — method: DHFR PCA, deep sequencing; matrix: yeast; together with: (+)-ABA 17 µM; reference: wild-type fitted maximum; direction: higher = stronger binding; measurement: relative binding score
Target: ABI1, truncated, D143A, DHFR fusion (Arabidopsis thaliana)
Setting: methotrexate growth selection, single substitutions
Parent: PYL1, truncated, DHFR fusion (Arabidopsis thaliana); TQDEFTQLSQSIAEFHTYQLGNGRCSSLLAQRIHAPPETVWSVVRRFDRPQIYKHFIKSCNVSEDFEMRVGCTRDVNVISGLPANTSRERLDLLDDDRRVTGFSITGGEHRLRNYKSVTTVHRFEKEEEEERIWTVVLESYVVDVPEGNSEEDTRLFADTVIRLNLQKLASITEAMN; partner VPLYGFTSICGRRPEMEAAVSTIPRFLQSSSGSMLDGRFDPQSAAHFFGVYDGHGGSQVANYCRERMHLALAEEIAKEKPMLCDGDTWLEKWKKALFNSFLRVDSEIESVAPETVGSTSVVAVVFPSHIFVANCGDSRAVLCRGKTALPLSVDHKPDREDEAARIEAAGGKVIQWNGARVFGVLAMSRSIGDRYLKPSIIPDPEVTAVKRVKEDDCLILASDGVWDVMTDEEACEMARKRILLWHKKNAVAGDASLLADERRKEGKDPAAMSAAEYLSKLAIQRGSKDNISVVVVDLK
S140Q: -5.49%
V40Y: 2.96%
P83L: 5.27%
I79V: 91.6%
G23F: 43.7%
F47C: -8.36%
D144M: 16.5%

Sample 3 — target: OGT, full length, His-tagged (human); method: phage display, sequencing; matrix: in vitro; concentration: 1 µg OGT; reference: input library; direction: higher = stronger binding; measurement: fold enrichment; parent: peptide; GDFPVMFMPKYSIIY
Setting: single substitutions, 15-mer displayed peptide, unchanged parent 5.27
I13K: 0.901 fold
M8W: 3.49 fold
K10V: 2.21 fold
Y15D: 0.989 fold
D2N: 5.77 fold
S12V: 5.26 fold
F7M: 1.19 fold
F7Y: 4.75 fold
D2I: 5.53 fold
K10D: 1.24 fold
P4A: 4.64 fold
G1Y: 7.05 fold

Single results of other studies
PhoQ, residues 284 288 289 292 302 303 SLSVQF — fold induction (PhoP, residues 12 14 15 18 19 DLLYY (Escherichia coli, UniProt P23836); Sort-seq, refers to: YFP reporter; E. coli; PhoQ-PhoP variant library, together with: 10 µM Mg2+; reference: high Mg2+ state, higher = stronger signaling): 0.409
